Experimental data collected from several papers.
Parts stem from different laboratories: compare values within a part only.
Sequence of UniProt O95747 (whole entry, looked up): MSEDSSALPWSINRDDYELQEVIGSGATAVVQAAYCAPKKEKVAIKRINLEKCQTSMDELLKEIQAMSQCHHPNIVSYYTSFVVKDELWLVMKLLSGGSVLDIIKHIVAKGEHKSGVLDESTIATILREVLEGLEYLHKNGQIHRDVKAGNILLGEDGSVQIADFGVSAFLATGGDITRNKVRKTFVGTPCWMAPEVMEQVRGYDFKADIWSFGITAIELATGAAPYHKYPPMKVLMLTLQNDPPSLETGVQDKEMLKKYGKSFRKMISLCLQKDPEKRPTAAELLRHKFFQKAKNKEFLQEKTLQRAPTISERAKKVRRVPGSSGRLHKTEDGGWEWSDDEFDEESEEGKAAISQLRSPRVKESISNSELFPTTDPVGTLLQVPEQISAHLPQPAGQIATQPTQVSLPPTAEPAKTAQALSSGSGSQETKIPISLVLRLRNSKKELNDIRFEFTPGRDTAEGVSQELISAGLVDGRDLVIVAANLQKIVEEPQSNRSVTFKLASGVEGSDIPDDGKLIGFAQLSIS
Sequence of UniProt Q9UIK4 (whole entry, looked up): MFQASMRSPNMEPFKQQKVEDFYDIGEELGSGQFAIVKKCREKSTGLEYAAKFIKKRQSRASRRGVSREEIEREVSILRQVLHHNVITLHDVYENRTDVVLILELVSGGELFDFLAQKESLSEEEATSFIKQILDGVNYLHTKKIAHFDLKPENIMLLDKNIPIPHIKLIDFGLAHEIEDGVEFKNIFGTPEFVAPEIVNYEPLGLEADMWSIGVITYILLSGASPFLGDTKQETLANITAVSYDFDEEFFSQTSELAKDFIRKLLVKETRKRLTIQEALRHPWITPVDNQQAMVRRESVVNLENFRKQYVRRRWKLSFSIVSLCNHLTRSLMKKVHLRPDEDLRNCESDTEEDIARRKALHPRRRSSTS
Sequence of UniProt P07948 (whole entry, looked up): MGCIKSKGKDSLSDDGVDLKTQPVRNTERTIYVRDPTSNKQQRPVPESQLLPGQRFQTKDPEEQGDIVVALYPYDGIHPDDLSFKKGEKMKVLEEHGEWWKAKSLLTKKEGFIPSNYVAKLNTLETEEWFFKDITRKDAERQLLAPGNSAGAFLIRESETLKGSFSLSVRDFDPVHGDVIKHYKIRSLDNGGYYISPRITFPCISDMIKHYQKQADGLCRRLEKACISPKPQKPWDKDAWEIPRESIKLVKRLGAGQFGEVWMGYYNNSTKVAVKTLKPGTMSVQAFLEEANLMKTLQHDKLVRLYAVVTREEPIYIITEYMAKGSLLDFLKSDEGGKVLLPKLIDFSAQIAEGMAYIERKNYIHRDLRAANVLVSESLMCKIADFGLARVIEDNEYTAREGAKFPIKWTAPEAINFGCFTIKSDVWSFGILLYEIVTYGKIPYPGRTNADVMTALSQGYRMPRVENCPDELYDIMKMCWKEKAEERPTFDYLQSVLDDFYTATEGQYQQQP
Sequence of UniProt Q08881 (whole entry, looked up): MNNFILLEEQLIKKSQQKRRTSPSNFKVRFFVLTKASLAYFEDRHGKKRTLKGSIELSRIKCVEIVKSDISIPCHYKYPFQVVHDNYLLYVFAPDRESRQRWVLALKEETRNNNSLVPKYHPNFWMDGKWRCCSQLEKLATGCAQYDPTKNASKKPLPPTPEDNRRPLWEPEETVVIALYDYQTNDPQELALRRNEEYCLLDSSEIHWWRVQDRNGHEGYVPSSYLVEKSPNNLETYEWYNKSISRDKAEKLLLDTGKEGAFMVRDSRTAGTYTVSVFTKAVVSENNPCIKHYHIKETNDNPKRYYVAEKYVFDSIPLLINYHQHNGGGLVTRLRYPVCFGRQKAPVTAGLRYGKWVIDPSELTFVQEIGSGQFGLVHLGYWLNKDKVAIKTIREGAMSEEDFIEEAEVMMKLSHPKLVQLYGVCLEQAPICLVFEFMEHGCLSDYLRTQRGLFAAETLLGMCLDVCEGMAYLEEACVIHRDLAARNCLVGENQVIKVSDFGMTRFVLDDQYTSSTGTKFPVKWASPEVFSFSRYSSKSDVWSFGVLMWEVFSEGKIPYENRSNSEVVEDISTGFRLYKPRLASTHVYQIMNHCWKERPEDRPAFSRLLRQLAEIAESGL
Sequence of UniProt Q13976 (whole entry, looked up): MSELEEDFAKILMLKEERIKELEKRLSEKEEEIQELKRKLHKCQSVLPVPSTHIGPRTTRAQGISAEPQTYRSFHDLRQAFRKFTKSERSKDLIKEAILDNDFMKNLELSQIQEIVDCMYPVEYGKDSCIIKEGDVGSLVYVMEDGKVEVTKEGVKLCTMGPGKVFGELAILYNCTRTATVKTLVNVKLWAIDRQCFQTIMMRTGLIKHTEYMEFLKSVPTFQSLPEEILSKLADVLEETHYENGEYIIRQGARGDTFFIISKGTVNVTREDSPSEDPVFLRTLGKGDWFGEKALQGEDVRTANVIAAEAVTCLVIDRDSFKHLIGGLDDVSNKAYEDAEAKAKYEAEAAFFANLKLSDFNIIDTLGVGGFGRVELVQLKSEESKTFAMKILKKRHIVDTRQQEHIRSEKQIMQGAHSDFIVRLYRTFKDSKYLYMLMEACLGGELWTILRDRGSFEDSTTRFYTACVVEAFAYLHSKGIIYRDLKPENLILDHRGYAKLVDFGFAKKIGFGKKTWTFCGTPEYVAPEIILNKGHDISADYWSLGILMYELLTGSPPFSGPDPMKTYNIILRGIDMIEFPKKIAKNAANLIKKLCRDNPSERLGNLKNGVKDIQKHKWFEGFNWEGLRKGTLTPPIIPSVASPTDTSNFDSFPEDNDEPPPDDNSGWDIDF
Sequence of UniProt P21802 (whole entry, looked up): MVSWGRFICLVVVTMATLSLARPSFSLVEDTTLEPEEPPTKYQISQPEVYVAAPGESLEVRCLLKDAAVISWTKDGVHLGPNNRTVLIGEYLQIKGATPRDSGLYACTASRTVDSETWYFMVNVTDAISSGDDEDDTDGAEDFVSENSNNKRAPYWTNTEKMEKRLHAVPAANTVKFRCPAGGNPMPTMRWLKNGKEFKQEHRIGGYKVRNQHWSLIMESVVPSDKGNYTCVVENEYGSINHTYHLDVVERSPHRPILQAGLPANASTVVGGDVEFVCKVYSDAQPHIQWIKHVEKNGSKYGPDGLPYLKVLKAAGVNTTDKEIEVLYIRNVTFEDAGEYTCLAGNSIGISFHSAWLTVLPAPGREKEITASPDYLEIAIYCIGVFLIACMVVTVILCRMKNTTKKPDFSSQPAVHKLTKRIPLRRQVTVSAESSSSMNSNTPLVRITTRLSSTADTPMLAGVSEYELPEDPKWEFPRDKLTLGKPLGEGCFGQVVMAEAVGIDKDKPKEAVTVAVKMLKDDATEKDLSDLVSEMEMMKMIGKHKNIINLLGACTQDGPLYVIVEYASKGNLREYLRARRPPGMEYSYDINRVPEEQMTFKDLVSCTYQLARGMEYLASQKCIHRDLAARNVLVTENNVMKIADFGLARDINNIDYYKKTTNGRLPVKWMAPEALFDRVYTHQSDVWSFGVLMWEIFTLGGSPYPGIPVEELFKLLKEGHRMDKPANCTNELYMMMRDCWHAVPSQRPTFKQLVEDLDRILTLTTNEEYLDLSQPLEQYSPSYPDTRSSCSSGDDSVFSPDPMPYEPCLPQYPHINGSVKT
Sequence of UniProt P0C264 (whole entry, looked up): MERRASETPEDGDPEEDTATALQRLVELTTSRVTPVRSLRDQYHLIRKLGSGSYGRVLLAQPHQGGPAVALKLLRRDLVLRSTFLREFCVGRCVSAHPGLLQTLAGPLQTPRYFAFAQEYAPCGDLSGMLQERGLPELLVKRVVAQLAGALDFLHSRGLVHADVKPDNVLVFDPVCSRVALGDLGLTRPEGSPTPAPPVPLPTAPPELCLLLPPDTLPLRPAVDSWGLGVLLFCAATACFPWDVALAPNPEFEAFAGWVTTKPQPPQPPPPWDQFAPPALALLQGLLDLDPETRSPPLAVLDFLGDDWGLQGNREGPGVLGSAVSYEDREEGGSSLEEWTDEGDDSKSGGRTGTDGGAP
Sequence of UniProt P11802 (whole entry, looked up): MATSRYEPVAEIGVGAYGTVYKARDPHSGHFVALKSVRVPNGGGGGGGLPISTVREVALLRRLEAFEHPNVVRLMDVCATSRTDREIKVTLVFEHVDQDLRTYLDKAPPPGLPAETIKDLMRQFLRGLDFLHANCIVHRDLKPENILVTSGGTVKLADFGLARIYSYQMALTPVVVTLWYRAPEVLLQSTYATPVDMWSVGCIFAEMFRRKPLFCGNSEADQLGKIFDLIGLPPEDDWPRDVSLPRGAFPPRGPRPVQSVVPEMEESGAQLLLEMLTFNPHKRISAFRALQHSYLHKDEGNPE
Sequence of UniProt Q00535 (whole entry, looked up): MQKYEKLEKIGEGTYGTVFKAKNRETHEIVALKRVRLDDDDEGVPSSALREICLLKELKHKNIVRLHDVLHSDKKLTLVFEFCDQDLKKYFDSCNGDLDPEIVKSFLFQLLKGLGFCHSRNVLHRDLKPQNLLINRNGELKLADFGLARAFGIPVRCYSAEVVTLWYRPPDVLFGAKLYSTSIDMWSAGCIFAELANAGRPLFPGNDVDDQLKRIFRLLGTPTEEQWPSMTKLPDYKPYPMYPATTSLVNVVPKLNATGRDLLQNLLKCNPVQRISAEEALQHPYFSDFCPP

Series 1
Compound: CC[C@H](C)c1nc2cc(Nc3ccnc4ccc(S(=O)(=O)C(C)C)cc34)ccc2s1
Target: Receptor-interacting serine/threonine-protein kinase 3 (RIPK3, Homo sapiens, UniProt Q9Y572)
Sequence of UniProt Q9Y572 (whole entry, looked up): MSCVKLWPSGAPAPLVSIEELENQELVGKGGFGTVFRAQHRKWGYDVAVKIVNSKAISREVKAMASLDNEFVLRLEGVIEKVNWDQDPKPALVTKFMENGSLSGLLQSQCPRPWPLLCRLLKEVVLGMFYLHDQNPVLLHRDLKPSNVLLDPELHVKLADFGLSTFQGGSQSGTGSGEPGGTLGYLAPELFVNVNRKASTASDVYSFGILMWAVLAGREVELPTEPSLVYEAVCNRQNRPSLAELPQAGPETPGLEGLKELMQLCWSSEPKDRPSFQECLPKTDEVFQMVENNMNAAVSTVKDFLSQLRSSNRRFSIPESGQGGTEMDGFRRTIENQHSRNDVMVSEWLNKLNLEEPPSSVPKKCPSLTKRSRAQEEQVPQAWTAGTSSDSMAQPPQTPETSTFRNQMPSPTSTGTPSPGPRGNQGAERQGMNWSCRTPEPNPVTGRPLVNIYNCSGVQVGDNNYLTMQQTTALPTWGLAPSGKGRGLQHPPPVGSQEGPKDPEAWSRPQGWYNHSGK
Effect on: kinase activity
Action: inhibitor
Method: ADP-Glo
Time: 1 h
setting	inhibition [%]
50 nM	95.2
6.25 nM	41.2
1.563 nM	26.8
12.5 nM	68.1
0.391 nM	26
100 nM	105
25 nM	91.7

Series 2
Compound: Nc1c(C(=O)NCc2ccc(C(=O)NCCCC3CCCCC3)cc2)cnn1-c1ccccc1
Method: competition with immobilised ligand
target	assay	setting	remaining binding [%]
EIF2AK1 (Homo sapiens, UniProt Q9BQI3)	cell-free assay	0.1 µM	100
ERBB3 (Homo sapiens, UniProt P21860)	binding	1 µM	44
MAP4K4 (Homo sapiens, UniProt O95819)	cell-free assay	0.1 µM	87
AXL (Homo sapiens, UniProt P30530)	cell-free assay	0.1 µM	87
SBK3 (Homo sapiens, UniProt P0C264)	cell-free assay	0.1 µM	87
Aurora kinase A (AURKA, Homo sapiens, UniProt O14965)	cell-free assay	0.1 µM	100
SIK2 (Homo sapiens, UniProt Q9H0K1)	cell-free assay	0.1 µM	100
FGFR2 (Homo sapiens, UniProt P21802)	cell-free assay	0.1 µM	100
PKN2 (Homo sapiens, UniProt Q16513)	cell-free assay	0.1 µM	78
HASPIN (Homo sapiens, UniProt Q8TF76)	cell-free assay	0.1 µM	100
TEK (Homo sapiens, UniProt Q02763)	cell-free assay	0.1 µM	100
PIK3CG (Homo sapiens, UniProt P48736)	cell-free assay	0.1 µM	100
ITK (Homo sapiens, UniProt Q08881)	cell-free assay	0.1 µM	93
OXSR1 (Homo sapiens, UniProt O95747)	cell-free assay	0.1 µM	100
STK35 (Homo sapiens, UniProt Q8TDR2)	cell-free assay	0.1 µM	100
CAMK2A (Homo sapiens, UniProt Q9UQM7)	cell-free assay	0.1 µM	100
EPHB6 (Homo sapiens, UniProt O15197)	cell-free assay	0.1 µM	100
INSRR (Homo sapiens, UniProt P14616)	cell-free assay	0.1 µM	100
KIT (Homo sapiens, UniProt P10721, D816V)	cell-free assay	0.1 µM	100
Tyrosine-protein kinase ABL1, phosphorylated (ABL1, Homo sapiens, UniProt P00519, T315I)	cell-free assay	0.1 µM	100
CDK8 (Homo sapiens, UniProt P49336)	cell-free assay	0.1 µM	96
EGFR (Homo sapiens, UniProt P00533)	cell-free assay	0.1 µM	99
PIK3CA (Homo sapiens, UniProt P42336, E542K)	cell-free assay	0.1 µM	100
Tyrosine-protein kinase JAK2, JH1 (JAK2, Homo sapiens, UniProt O60674)	cell-free assay	0.1 µM	100
SLK (Homo sapiens, UniProt Q9H2G2)	cell-free assay	0.1 µM	80

Series 3
Cell line: A-375
Tested at: 100 µM
Time: 60 h
SMILES	viability [%]
CS(=O)(=O)c1ccc(C2=C(c3ccccc3)C(=O)OC2)cc1	102
CCCCc1ncc(/C=C(\Cc2cccs2)C(=O)O)n1Cc1ccc(C(=O)O)cc1	102
O=c1cc(-c2ccc(O)c(O)c2)oc2cc(O)cc(O)c12	13.4

Series 4
SMILES: FC(F)(F)c1ccc(/C=C/c2nc(COc3ccc(CCCCn4ccnn4)cc3)co2)cc1
Effect on: enzyme activity
Action: inhibitor
Tested at: 0.5 µM
Relative to: control
target	remaining activity [%]
Cyclin-dependent kinase 5, with p25 (CDK5, Homo sapiens, UniProt Q00535)	106
cGMP-dependent protein kinase 1, isoform beta (PRKG1, Homo sapiens, UniProt Q13976)	98.1
CAMKK2 (Homo sapiens, UniProt Q96RR4)	101
STK39 (Homo sapiens, UniProt Q9UEW8)	88.3
GRK3 (Homo sapiens, UniProt P35626)	104
IKBKB (Homo sapiens, UniProt O14920)	98.6
Cyclin-dependent kinase 4, with cyclin D1 (CDK4, Homo sapiens, UniProt P11802)	96.8
IKBKE (Homo sapiens, UniProt Q14164)	94.8
CAMK2D (Homo sapiens, UniProt Q13557)	109
PRKACA (Homo sapiens, UniProt P17612)	101
MAPK9 (Homo sapiens, UniProt P45984)	106
Tyrosine-protein kinase Lyn, isoform B (LYN, Homo sapiens, UniProt P07948)	104
CHEK2 (Homo sapiens, UniProt O96017)	103
DAPK2 (Homo sapiens, UniProt Q9UIK4)	107
OXSR1 (Homo sapiens, UniProt O95747)	99.7
NEK2 (Homo sapiens, UniProt P51955)	96.2
STK11 (Homo sapiens, UniProt Q15831)	104
DAPK1 (Homo sapiens, UniProt P53355)	91.3
PRKCA (Homo sapiens, UniProt P17252)	111
MAP3K3 (Homo sapiens, UniProt Q99759)	112
STK10 (Homo sapiens, UniProt O94804)	92.6
TGFBR2 (Homo sapiens, UniProt P37173)	103
Protein kinase C beta type, isoform beta-I (PRKCB, Homo sapiens, UniProt P05771)	103

Repeated from above (series 4):
target	remaining activity [%]
IKBKB (Homo sapiens, UniProt O14920)	98.6
MAP3K3 (Homo sapiens, UniProt Q99759)	112
OXSR1 (Homo sapiens, UniProt O95747)	99.7
cGMP-dependent protein kinase 1, isoform beta (PRKG1, Homo sapiens, UniProt Q13976)	98.1
IKBKE (Homo sapiens, UniProt Q14164)	94.8
NEK2 (Homo sapiens, UniProt P51955)	96.2
